{"data": "Results from different studies", "AR": "Androgen receptor (AR, Homo sapiens, UniProt P10275)", "PSMB5": "Proteasome Macropain subunit MB1 (PSMB5, Homo sapiens, UniProt P28074)", "Protein AF-9 with DOT1L": "Protein AF-9, with DOT1L (Homo sapiens, UniProt P42568)", "CSNK1D": "Casein kinase I isoform delta (CSNK1D, Homo sapiens, UniProt P48730)", "note": "Each line is one published result; not all experiments were run side by side. Numbers after ± are the reported error."}
{"SMILES": "CCc1ccc(Cn2nnc3c4ccc(F)cc4c(=O)[nH]c32)cc1", "target": "Protein mono-ADP-ribosyltransferase PARP10 (PARP10, Homo sapiens, UniProt Q53GL7)", "IC50 [µM]": "> 10"}
{"SMILES": "C[C@H](CCC(=O)O)[C@H]1CC[C@H]2[C@@H]3CC=C4CC(=O)CC[C@]4(C)[C@H]3CC[C@]12C", "target": "AR", "test": "reporter gene, antagonist, luciferase reporter", "conditions": "with: DHT 15 pM", "IC50 [µM]": 0.443}
{"SMILES": "Cc1ncc(C(=O)N[C@@H](CC2CCCC3CCCCC32)C(=O)N[C@@H](CC(C)C)C(=O)N[C@H](/C=C/S(C)(=O)=O)Cc2ccc(CN)cc2)s1 (stereo partly drawn)", "target": "PSMB5", "test": "competitive ABPP", "test system": "Raji cell lysate", "IC50 [µM]": 0.419}
{"SMILES": "CC(C)(C)c1ccccc1Nc1ccc2ncc(OCC3CCNCC3)nc2c1", "target": "Protein AF-9 with DOT1L", "test": "DOT1L binding, AlphaLISA", "IC50 [µM]": 3.6}
{"SMILES": "CC(C)C[C@H](NC(=O)OCc1ccccc1)C(=O)N[C@@H](CC(C)C)C(=O)NN(CC(C)C)C(=O)/C=C/C(=O)N(Cc1ccccc1)Cc1ccccc1", "target": "Proteasome component C5/PSMB5 (Homo sapiens, UniProt P20618+P28074)", "test": "chymotrypsin-like activity, inhibitor", "test system": "human 20S proteasome", "conditions": "with: Suc-LLVY-AMC 100 µM", "IC50 [µM]": "1.2 ± 1.1"}
{"SMILES": "CCCC[C@H]1CN(c2cccc(OC(F)(F)F)c2)C(=O)CN1Cc1cncn1Cc1ccc(Br)cc1", "target": "Protein farnesyltransferase (Rattus norvegicus, UniProt Q02293+Q04631)", "test": "inhibitor", "IC50 [µM]": "~0.06"}
{"SMILES": "CC1(C)NC(=O)N(c2ccc(F)c(Br)c2)C1=O", "target": "AR", "test": "reporter gene, antagonist", "test system": "LAPC4", "conditions": "24 h, with: DHT 10 nM", "IC50 [µM]": 9.7}
{"SMILES": "COc1cccc(CNC(=O)c2cn(Cc3ccc(Cn4ccccc4=O)cc3)nc2C2CC2)c1F", "target": "Plasminogen (PLG, Homo sapiens, UniProt P00747)", "IC50 [µM]": "> 40"}
{"SMILES": "CCn1cc(C(=O)Nc2cccc(O)c2)c(=O)c2cc(F)c(N3CCN(C(C)=O)CC3)cc21", "target": "Proto-oncogene tyrosine-protein kinase receptor Ret (RET, Homo sapiens, UniProt P07949)", "test": "kinase activity, inhibitor", "conditions": "replicate one, with: 1 µM ATP, poly(Glu,Tyr)", "IC50 [µM]": 16.4}
{"SMILES": "Oc1ccc(Cl)cc1Nc1nc(NCC2CCCO2)c2ccccc2n1 (stereo not drawn)", "target": "Lysosomal acid glucosylceramidase (GBA1, Homo sapiens, UniProt P04062, R534H)", "test": "enzyme activity, inhibitor, fluorogenic", "conditions": "20 min, room temperature, with: resorufin β-glucoside 30 µM", "IC50 [µM]": 0.12}
{"SMILES": "CC(C)N(CCC(=O)c1ccc2ccccc2c1)Cc1ccccc1", "target": "Protein-glutamine gamma-glutamyltransferase (TGM2, Homo sapiens, UniProt P21980)", "test": "enzyme activity, inhibitor", "conditions": "with: no DTT", "IC50 [µM]": "0.01 ± 0.01"}
{"SMILES": "CN1CCN(c2ccc(Nc3ncc4cc(C#N)c(=O)n(C5CCCC5)c4n3)cc2)CC1", "target": "Serine/threonine-protein kinase Chk2 (CHEK2, Homo sapiens, UniProt O96017)", "IC50 [µM]": 8.5}
{"SMILES": "O=[N+]([O-])c1ccccc1-c1nc(-c2ccc(F)cc2)c(-c2ccncc2)[nH]1", "target": "CSNK1D", "test": "inhibitor", "IC50 [µM]": "0.0143 ± 0.0044"}
{"SMILES": "c1ccc(COc2ccc(Nc3ccc4ncc(OCC5CCNCC5)nc4c3)cc2)cc1", "target": "Protein AF-9 with DOT1L", "test": "DOT1L binding, AlphaLISA", "IC50 [µM]": 2.8}
{"SMILES": "COC(=O)c1ccc2nc(-c3ccc(O)c(Br)c3)[nH]c2c1", "target": "Dihydrofolate reductase type 2 (Escherichia coli, UniProt P00383)", "test": "enzyme activity", "conditions": "pH 7", "IC50 [µM]": "> 30"}
{"SMILES": "Cc1cccc(-c2nc(-c3ccc(C(=O)O)cc3)[nH]c2-c2ccncc2)c1", "target": "CSNK1D", "test": "inhibitor", "IC50 [µM]": "4.71 ± 1.62"}
{"SMILES": "c1ccc(CN(Cc2ccccn2)C(c2ccccn2)c2ccccn2)nc1", "target": "PSMB5", "test": "chymotrypsin-like activity, inhibitor, purified 20S proteasome", "conditions": "30 min, pH 7.4, 37 °C, with: 20 µM Suc-LLVY-AMC", "IC50 [µM]": "> 1000"}
{"SMILES": "COc1ccc(C[C@H](NC(=O)[C@H](C)NC(=O)CN2CCOCC2)C(=O)N[C@@H](CCC2CCCCC2)C(=O)[C@@]2(C)CO2)cc1", "target": "PSMB5", "test": "competitive ABPP", "test system": "Raji cell lysate", "IC50 [µM]": "> 10"}
{"note": "Repeated from above:"}
{"SMILES": "CC(C)N(CCC(=O)c1ccc2ccccc2c1)Cc1ccccc1", "target": "Protein-glutamine gamma-glutamyltransferase (TGM2, Homo sapiens, UniProt P21980)", "test": "enzyme activity, inhibitor", "conditions": "with: no DTT", "IC50 [µM]": "0.01 ± 0.01"}
{"SMILES": "CN1CCN(c2ccc(Nc3ncc4cc(C#N)c(=O)n(C5CCCC5)c4n3)cc2)CC1", "target": "Serine/threonine-protein kinase Chk2 (CHEK2, Homo sapiens, UniProt O96017)", "IC50 [µM]": 8.5}
